Published values collected from several papers.
Each numbered part is a random draw from the data of one study; scales do not carry over between parts.

Sample 1
Target: RING finger protein unkempt homolog, zinc fingers 1-6, SBP tag (UNK, Homo sapiens, UniProt Q9C0B0, residues 30-357)
UniProt Q9C0B0, sequence (30-357, looked up): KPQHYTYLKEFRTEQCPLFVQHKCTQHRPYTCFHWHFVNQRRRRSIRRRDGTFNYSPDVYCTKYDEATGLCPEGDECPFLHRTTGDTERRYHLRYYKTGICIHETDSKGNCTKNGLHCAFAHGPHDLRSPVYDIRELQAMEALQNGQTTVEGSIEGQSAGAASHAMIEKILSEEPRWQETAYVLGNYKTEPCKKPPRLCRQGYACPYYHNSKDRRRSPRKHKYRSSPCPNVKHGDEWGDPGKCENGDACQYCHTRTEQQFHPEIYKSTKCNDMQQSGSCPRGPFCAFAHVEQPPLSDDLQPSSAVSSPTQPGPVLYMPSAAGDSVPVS
Method: RNA Bind-n-Seq
Form: RNA
Sample: in vitro
Tested at: 100 nM
Notes: RNA with constant flanks, vertebrate orthologous sites, ends assumed
Relative to: input RNA pool
Reading: higher = stronger binding
All sequences stand within: GGGAGUUCUACAGUCCGACGAUC … CAACAGAGGAUUGAGCAUCA
Sequence | bound/input enrichment
UGGGUUACUCCUAUUAUUAUCAAGUAGCUGGAAUUGUGAAGGUCGGAGUAGUUAGAUCUUUAGCUUUUAUUCCUUUUUUUGUAUUACUAUCCAUGUGUAUAAAUUAUUGAUCAUGUUGCU | 1.73 ratio
UUCAGGCACAACUGACUGGCUCACAGCAUUCCUUGCAUAGUUAUCUAGCAAAUGCAAGUGUGGUUAAUUUUCAGGAAACAACCAGGCAGUCAUCUUUACCUUGUAGCCCAGUCGGAGAUU | 0.393 ratio
CAUUUUCUCACUUUAGGUACCAUUGCCCAAUGCCCAAGAUCUUUUAUGUUCAGCUGACUGUAGGAAAUAAUGAAUUUUUUGGGGAAGGAAAGACUCGCCAAGCCGCUAGACACAACGCAG | 1.09 ratio
AAGAUGGUGGUUGUACAUUAUUUCAUUUAGAAAAUAUAAACUUUAAUUUUGUUUUGAAGUUAGGUGUUAAACUGGAAUAGCGAUCAUACCCCGGAUAAUGGGGGCAGUUGUGCCCUUCCC | 0.953 ratio
AGGCUUAGAAACUGGAAUGGAACCAGAAUGUAGCCCAAGGAAAGCAAACAUGAAAUGACCAAAUGACCACCACAUACAGUACAACUCAAUAUGAAUGCUGCCACCCAGGGUAGUGACUUG | 0.313 ratio

Sample 2
Target: RNA binding protein fox-1 homolog 2, RRM domain, GST-SBP tag (RBFOX2, Homo sapiens, UniProt O43251-10, residues 100-194)
Method: RNA Bind-n-Seq
Form: RNA
Sample: in vitro
Tested at: 365 nM
Notes: natural RNA segment, single round, ends assumed
Relative to: no-protein control
Reading: higher = stronger binding
All sequences stand within: GGGAGUUCUACAGUCCGACGAUC … UGGAAUUCUCGGGUGCCAA
Residues (chain): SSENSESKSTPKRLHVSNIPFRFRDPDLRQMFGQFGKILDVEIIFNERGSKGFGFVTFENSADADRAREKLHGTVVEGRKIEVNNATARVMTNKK
Sequence | RBNS enrichment (R)
GAGAAAGGACACUGGAUUGAGCUUCUGAAAUGCCACUGGUAGCUCUGUAACAUGGGAAUGGAAAUGUCCCUCUCUGGGCCUGUGUUUCUUUGUGUGUCCAGUGAAGGAAC | 0.988
UGCCUUGCGCUAUCAUGACUGACUGGCCCAGUAUGAUUCUGUUGUCGCUGAUCUCCCGGAGGAGGAGGCUGUUGACCUGAAAACAGUGGCGUGGCUCCCCUGUGCCCAGA | 0.363
UGUAUCAAUAUUUCCUAACAUGAAGCAGUCAAACAUGUAUGGCACAUACUGACCAGACGUCAGUCUGUGAUGUUUCCGCUGCAAGAAUUCAAGCAUGCUGUUAGGAAUGU | 6.93
CGUCAGCUCUUCCAGGACCUGGAGCGCUACGUGCAGGACGCCGAUGUGCGCUGGGAGUACUGCGUGCGCGCCAAGCGCGGCCAGACCGACACCUCGCUGCCAGGUUGUUU | 0.42
AACCUGUGCCAGUCUAUAGCCUCUGCCUCCCCAAGCAGAGCUCAAGCCAAACGCUUCUGUCCUCUUUCCUUCUGCAUUAACCCUUUGCUGAUCCUCAGGGGCCACUCCCC | 0.328
AUUUAAAGAAAGGUCUAUGCUGUCAUAUGGGGUUUAUUGGGAACUAUCCUCCUGGCCCCACCCUGCCCCUUCUUUUUGGUUUUGACAUCAUUCAUUUCCACCUGGGAAUU | 0.457
ACUUAUACUUAUUCUAUAAGGCCAAAGCCUUAUCUAGAAAGAUCAUGAAGAGUUUGGAUAUUUUUAAAACUAUACUCGAAUUUUCAUUUUUUCCUGUCCUGUAAAGAGAG | 0.403
CAUACAGGUUUUGUAGCUUAUUAUUAUGGAACAGACUGAAGAUCUGCAGUACGAAUUUAAUACUUAUAAAGGUUUGCAUUAAUGAGGAUUACACAGAAAACCUUUGUUAA | 0.549

Sample 3
Target: Histone acetyltransferase KAT6A, winged helix 2, GST fusion (KAT6A, Homo sapiens, UniProt Q92794, residues 85-181)
Method: protein binding microarray
Form: double-stranded DNA, one strand shown
Sample: in vitro
Tested at: not given
Notes: 8-mer, flanks averaged, mean of 2 arrays, mostly near background
Relative to: not given
Reading: higher = stronger binding
Target sequence (chain): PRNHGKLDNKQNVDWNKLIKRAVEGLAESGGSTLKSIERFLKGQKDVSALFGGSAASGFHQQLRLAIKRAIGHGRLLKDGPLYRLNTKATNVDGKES
Sequence | E-score
CTAGACAC | -0.0574
ATAGATCA | 0.0459
ACACGTGT | -0.255
ATATTTGA | 0.00656
GCAATACA | 0.00364
TACACTGA | -0.0722
ATGCGGTC | 0.146
GGGGTACA | -0.0438
AGTGTAAT | -0.109

Other studies, line by line
Molecule | target | assay | system | setting | how to read | measurement | result
PhoQ, residues 284 288 289 292 302 303 SQSLSM | PhoP, residues 12 14 15 18 19 NQCAL (Escherichia coli, UniProt P23836) | Sort-seq, item: YFP reporter | E. coli | PhoQ-PhoP variant library, with: 10 µM Mg2+ | relative to: high Mg2+ state, higher = stronger signaling | fold induction | 2.43

A few entries again (sample 2):
Sequence | RBNS enrichment (R)
CAUACAGGUUUUGUAGCUUAUUAUUAUGGAACAGACUGAAGAUCUGCAGUACGAAUUUAAUACUUAUAAAGGUUUGCAUUAAUGAGGAUUACACAGAAAACCUUUGUUAA | 0.549
